Measured values gathered from unrelated publications.
PIK3CA: Phosphatidylinositol 4,5-bisphosphate 3-kinase catalytic subunit alpha isoform (PIK3CA, Homo sapiens, UniProt P42336)
Chain of UniProt P42336 (whole entry, unmodified, looked up): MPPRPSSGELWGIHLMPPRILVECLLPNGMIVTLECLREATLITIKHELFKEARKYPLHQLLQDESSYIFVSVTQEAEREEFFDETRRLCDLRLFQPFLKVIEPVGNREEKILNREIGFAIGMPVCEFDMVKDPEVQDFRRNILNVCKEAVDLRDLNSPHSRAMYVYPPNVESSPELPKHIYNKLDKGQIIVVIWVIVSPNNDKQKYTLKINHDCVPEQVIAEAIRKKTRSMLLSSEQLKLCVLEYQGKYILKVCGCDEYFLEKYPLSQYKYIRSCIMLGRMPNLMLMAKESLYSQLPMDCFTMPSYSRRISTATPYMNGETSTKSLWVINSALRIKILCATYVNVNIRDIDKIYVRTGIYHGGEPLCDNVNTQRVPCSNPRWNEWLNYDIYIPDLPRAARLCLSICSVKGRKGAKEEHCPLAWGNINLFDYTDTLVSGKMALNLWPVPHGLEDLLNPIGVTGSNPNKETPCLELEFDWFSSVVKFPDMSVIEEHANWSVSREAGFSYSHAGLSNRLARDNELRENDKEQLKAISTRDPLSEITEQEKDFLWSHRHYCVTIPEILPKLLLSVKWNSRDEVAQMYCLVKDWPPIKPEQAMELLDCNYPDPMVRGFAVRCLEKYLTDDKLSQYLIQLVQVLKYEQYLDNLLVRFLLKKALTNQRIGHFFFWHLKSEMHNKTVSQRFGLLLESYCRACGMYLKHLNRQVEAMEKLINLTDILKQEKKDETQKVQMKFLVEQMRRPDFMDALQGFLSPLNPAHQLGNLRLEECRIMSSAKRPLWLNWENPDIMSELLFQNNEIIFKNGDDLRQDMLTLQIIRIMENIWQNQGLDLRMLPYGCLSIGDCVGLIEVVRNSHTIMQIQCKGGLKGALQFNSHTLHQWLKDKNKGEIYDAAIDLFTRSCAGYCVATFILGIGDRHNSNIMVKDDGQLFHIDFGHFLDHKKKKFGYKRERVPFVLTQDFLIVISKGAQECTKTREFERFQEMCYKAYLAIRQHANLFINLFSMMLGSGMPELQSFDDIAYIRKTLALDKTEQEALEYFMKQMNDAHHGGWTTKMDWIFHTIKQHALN
PIK3CA with p65 alpha: Phosphatidylinositol 4,5-bisphosphate 3-kinase catalytic subunit alpha isoform, with p65 alpha (PIK3CA, Homo sapiens, UniProt P42336)
PIK3CA E545K with p85 alpha: Phosphatidylinositol 4,5-bisphosphate 3-kinase catalytic subunit alpha isoform, with p85 alpha (PIK3CA, Homo sapiens, UniProt P42336, E545K)

C=CC(=O)N1CCC(COCC(=O)N2CCN(c3nc(-c4cnc(N)nc4C(F)F)nc(N4CCOC[C@@H]4C)n3)CC2)CC1 — remaining binding (PIK3CA; KINOMEscan; 1 µM): 0%
COc1cc(-c2cncc3c2CN(C)Cc2cc(N4CCNCC4)ccc2-3)cc(OC)c1OC — remaining activity (PIK3CA with p65 alpha; kinase activity; 1 µM, p110a/p65a)(h human, together with: ATP 10 µM; reference: DMSO): 102%
O=C(NC1CCC1)c1ccc2nc(-c3cccc(NS(=O)(=O)NCCN4CCCCC4)c3)cn2c1 — remaining activity (PIK3CA; enzyme activity; 10 µM): 100%
Cc1nc(NC(=O)N2CCCC2)sc1-c1csc(C(C)(C)C)n1 — inhibition (PIK3CA; enzyme activity, inhibitor, Kinase-Glo luminescence; 3 µM): 42%
CS(=O)(=O)Nc1cccc(-c2csc(NC(=O)CSc3nc4nccnc4c(=O)n3CCc3ccccc3)n2)c1 — inhibition (PIK3CA E545K with p85 alpha; 10 µM, E545K with PIK3R1): 2%
CN(C)C1CCN(CC#Cc2nn(C3CCCC3)c3nc(NCc4ccccc4)ncc23)C1 (centres unmarked) — inhibition (Phosphatidylinositol 4,5-bisphosphate 3-kinase catalytic subunit alpha isoform, with p85 alpha (PIK3CA, Homo sapiens, UniProt P42336); enzyme activity, inhibitor, Z'-LYTE; 100 nM): -3%
O=C(CSc1nc2nccnc2c(=O)n1CCc1ccccc1)Nc1nccs1 — inhibition (PIK3CA E545K with p85 alpha; 10 µM, E545K with PIK3R1): 28%
Cc1ccc(NC(=O)c2ccc(C)c(C(F)(F)F)c2)cc1C#Cc1nn(C2CCC(O)CC2)c2ncnc(N)c12 (centres unmarked) — remaining activity (PIK3CA with p65 alpha; enzyme activity, inhibitor; 10 µM, p110a/p65a)(h human, together with: ATP 10 µM): 92%

Some of these lines once more:
O=C(CSc1nc2nccnc2c(=O)n1CCc1ccccc1)Nc1nccs1 — inhibition (PIK3CA E545K with p85 alpha; 10 µM, E545K with PIK3R1): 28%
